Experimental data of several laboratories.
Compare with care: the assays were run in different laboratories. Numbers after ± are the reported error.
UniProt Q9GZV3, sequence (whole entry, looked up): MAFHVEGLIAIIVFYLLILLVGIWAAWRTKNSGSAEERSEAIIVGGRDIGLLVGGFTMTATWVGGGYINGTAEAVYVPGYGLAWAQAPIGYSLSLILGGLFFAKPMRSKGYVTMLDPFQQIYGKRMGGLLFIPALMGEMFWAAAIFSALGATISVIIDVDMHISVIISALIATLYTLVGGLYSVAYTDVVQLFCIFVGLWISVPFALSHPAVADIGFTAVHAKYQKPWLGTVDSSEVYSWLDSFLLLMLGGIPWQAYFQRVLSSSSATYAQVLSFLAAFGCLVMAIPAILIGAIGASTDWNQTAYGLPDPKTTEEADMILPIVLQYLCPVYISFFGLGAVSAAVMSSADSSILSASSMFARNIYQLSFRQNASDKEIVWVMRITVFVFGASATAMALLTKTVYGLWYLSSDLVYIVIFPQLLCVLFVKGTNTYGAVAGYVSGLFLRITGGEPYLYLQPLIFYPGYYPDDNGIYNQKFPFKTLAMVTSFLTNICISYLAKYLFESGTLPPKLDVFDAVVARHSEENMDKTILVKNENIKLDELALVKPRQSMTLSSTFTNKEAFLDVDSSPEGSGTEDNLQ
UniProt Q9Y570, sequence (whole entry, looked up): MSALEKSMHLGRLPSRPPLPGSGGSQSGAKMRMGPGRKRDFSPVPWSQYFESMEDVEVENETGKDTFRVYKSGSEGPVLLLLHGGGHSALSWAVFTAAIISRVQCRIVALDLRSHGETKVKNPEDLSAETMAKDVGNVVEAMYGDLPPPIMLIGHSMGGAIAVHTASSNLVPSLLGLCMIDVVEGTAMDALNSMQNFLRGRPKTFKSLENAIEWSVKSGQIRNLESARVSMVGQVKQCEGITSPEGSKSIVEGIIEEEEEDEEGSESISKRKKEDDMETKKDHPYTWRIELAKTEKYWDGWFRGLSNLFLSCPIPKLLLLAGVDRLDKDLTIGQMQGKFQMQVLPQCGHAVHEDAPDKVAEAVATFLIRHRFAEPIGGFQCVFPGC
UniProt Q07157, sequence (whole entry, looked up): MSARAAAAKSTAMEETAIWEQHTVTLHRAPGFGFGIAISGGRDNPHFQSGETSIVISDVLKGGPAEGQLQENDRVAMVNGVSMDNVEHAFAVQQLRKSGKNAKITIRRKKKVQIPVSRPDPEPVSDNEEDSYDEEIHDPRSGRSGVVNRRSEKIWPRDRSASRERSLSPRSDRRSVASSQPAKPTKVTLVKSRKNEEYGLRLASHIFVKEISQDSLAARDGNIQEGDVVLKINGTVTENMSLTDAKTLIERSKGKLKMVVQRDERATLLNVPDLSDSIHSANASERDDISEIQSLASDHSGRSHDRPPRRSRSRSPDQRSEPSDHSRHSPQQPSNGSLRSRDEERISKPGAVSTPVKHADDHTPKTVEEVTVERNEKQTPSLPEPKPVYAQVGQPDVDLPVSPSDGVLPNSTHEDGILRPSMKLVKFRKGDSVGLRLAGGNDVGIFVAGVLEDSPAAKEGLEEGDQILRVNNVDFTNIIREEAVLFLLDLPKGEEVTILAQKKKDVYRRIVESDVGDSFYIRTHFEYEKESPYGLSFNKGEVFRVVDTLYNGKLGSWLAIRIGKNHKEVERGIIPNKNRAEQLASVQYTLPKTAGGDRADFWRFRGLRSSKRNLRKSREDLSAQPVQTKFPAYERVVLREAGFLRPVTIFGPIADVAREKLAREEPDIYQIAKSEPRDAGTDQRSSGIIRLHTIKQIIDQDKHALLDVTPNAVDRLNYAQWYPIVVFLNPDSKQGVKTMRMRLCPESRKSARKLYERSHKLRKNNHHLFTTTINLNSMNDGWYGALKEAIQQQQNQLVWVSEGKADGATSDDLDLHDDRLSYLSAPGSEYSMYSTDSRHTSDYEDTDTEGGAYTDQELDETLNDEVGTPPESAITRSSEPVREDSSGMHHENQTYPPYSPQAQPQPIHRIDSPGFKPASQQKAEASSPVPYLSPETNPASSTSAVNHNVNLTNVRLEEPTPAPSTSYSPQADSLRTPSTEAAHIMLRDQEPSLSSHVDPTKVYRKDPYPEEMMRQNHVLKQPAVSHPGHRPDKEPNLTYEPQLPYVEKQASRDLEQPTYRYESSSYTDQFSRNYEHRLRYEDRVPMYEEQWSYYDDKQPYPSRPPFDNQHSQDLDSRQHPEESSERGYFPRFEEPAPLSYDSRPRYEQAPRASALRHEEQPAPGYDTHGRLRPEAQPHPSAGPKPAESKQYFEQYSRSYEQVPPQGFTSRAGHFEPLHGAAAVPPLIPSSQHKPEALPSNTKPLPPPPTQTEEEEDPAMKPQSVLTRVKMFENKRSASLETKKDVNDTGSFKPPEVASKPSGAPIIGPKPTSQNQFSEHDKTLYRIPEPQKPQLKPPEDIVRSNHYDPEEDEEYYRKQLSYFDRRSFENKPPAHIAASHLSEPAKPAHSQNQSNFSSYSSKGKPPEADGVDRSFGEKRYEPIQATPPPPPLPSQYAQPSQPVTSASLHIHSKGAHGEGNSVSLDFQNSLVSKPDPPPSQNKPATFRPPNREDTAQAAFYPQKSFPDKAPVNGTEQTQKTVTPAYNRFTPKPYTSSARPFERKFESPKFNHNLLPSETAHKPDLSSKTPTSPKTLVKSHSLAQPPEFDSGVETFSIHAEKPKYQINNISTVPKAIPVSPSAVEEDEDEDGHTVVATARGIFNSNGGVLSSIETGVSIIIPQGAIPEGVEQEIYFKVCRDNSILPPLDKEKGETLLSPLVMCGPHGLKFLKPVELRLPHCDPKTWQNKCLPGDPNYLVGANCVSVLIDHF

With `C[C@H]1CN(c2n[nH]c3nc(N[C@H]4CC[C@H](NS(=O)(=O)CCC(F)(F)F)CC4)ncc23)CCO1` the remaining binding was 1.07 (Tight junction protein 1 (TJP1, Homo sapiens, UniProt Q07157); Kinobeads competition, item: TJP1; 0.16 µM, unit not given; reference: vehicle).
`CC(C)CC(=O)OC[C@H]1O[C@@](C#N)(c2ccc3c(N)ncnn23)[C@H](O)[C@@H]1O` has a fraction bound of 0.816 (human plasma; 90 µM).
`Cc1cccc(Cn2nc(C3CC3)c3c(NC(=O)c4cnc5cc(OCCN6CCN(C)CC6)ccn45)cccc32)n1`: “all-cause adverse events” 42.1% (CTCAE v4.03, item: AST increased; PD-1/PD-L1 inhibitor-refractory patients; oral, dose not given, added: pembrolizumab IV every 3 weeks).
For `C[C@@H]1NC(=O)[C@H](CCCCNC(=O)CO/N=C/C(=O)NCCCC[C@@H]2NC(=O)[C@@H](Cc3ccccc3)NC(=O)[C@H](CC(=O)O)NC(=O)CNC(=O)[C@H](CCCNC(=N)N)NC2=O)NC(=O)CNC(=O)[C@@H]2CCCN2C(=O)[C@H](CCCCNC(=O)CO/N=C/C(=O)NCCCC[C@@H]2NC(=O)[C@@H](Cc3ccccc3)NC(=O)[C@H](CC(=O)O)NC(=O)CNC(=O)[C@H](CCCNC(=N)N)NC2=O)NC(=O)[C@H](CCCCNC(=O)[C@H](CCCCN)NC(=O)[C@H](Cc2ccccc2)NC(=O)CNC(=O)CN2CCCNCCNCCCNCC2)NC(=O)[C@H](CCCCNC(=O)CO/N=C/C(=O)NCCCC[C@@H]2NC(=O)[C@@H](Cc3ccccc3)NC(=O)[C@H](CC(=O)O)NC(=O)CNC(=O)[C@H](CCCNC(=N)N)NC2=O)NC(=O)CNC(=O)[C@@H]2CCCN2C(=O)[C@H](CCCCNC(=O)CO/N=C/C(=O)NCCCC[C@@H]2NC(=O)[C@@H](Cc3ccccc3)NC(=O)[C@H](CC(=O)O)NC(=O)CNC(=O)[C@H](CCCNC(=N)N)NC2=O)NC1=O` [copper-64 labelled], the tissue uptake was 17 ± 1.85 %ID/g (PET imaging; mouse, U-87 MG tumour xenograft, liver; intravenous, 24 h).
For `COC[C@@H](CC(C)C)NC(=O)c1ccc(C)c(C)c1`, “PCE to total erythrocyte ratio” read 0.541 (Hsd:ICR (CD-1) mouse, male, bone marrow; oral, 2000 mg/kg, 24 h).
`COc1cc(Nc2ncc(F)c(Nc3ccc4c(n3)NC(=O)C(C)(C)O4)n2)cc(OC)c1OC` has an IC50 of greater than 10 µM (SLC5A7 (Homo sapiens, UniProt Q9GZV3)).
The Cmax of `O=C1c2c(O)c(=O)ccn2N([C@@H]2c3ccccc3SCc3c2ccc(F)c3F)[C@@H]2COCCN12` is reported as 0.0565 µg/mL (BALB/c mouse; subcutaneous, 1 mg/kg q24h).
For `CCN1[C@@H](C(=O)NC23CCC(C(=O)O)(CC2)CC3)[C@H](c2cccc(Cl)c2F)[C@]2(C(=O)Nc3cc(Cl)ccc32)C12CCCCC2`, “oral mucositis incidence” read 9.1% (patients with advanced solid tumours; 100 mg).
For `COc1ncccc1-c1cnn2ccc(N3CCN(C(=O)OC(C)C)CC3)nc12`, the free concentration was 0.022 µM (rat rotarod, plasma; 10 mg/kg, 180 min).
Under “patients with adverse event”, `CN1CC[C@@H](c2c(O)cc(O)c3c(=O)cc(-c4ccc(C(F)(F)F)cc4Cl)oc23)[C@@H]1CO` is recorded as 0% (item: Sepsis; relapsed B-cell malignancies or AML; oral, 50 mg, grade 3-4, continuous dosing).
`CC(=O)c1c(C)c2cnc(Nc3ccc(C4CCN(CCS(C)(=O)=O)CC4)cn3)nc2n(C2CCCC2)c1=O` has an AST increased of 30.9% (HR+/HER2- advanced breast cancer patients; oral, dose not given, all grades).
The tissue uptake of `C[C@@H](O)[C@@H](CO)NC(=O)[C@@H](CCCNC(=N)N)NC(=O)[C@@H]1CCCN1C(=O)[C@@H]1CSSC[C@H](NC(=O)[C@H](Cc2ccccc2)NC(=O)CN2CCN(CC(=O)O)CCN(CC(=O)O)CCN(CC(=O)O)CC2)C(=O)N[C@@H](Cc2ccc(O)cc2)C(=O)N[C@@H](Cc2ccccc2)C(=O)N[C@@H](CCC(N)=O)C(=O)N[C@@H](CC(N)=O)C(=O)N1` [gallium-68 labelled] is reported as 0.04 %ID/g (healthy Wistar rat, brain; intravenous, 8 MBq, 30 min, individual animals).
`COc1cc2c(Oc3ccc4[nH]c(C)cc4c3F)ccnc2cc1OCC1(N)CC1`: “grade 1 or 2 Dizzy” 0% (paediatric recurrent refractory sarcoma; 10 mg).
For `CO[C@H]1C[C@@H]2CC[C@@H](C)[C@@](O)(O2)C(=O)C(=O)N2CCCC[C@H]2C(=O)O[C@H]([C@H](C)C[C@@H]2CC[C@@H](OC(=O)NCCOCCOCCOCCOCCOCCOCCOCCOCCC(=O)N3CCc4cc(Cn5nc(-c6ccc7oc(N)nc7c6)c6c(N)ncnc65)ccc4C3)[C@H](OC)C2)C[C@@H](O)[C@H](C)/C=C(\C)[C@@H](O)[C@@H](OC)C(=O)[C@H](C)C[C@H](C)/C=C/C=C/C=C/1C`, “treatment-related decreased appetite incidence” read 30% (dose-escalation trial; patients with advanced solid tumours; intravenous, all doses weekly, any grade).
`CC[C@H](C)[C@@H]1NC(=O)[C@@H]2CCCN2C(=O)[C@H](CC(C)C)NC(=O)[C@H](CC(C)C)NC(=O)CNC(=O)[C@@H](NC(=O)[C@@H](NC(=O)[C@H](CC(=O)O)NC(=O)CNC(=O)[C@@H](NC(=O)[C@H](C)NC(=O)CNC(=O)[C@H](CCCCN)NC(=O)[C@H](CC(C)C)NC(=O)[C@H](CC(C)C)NC(=O)[C@H](CCCCN)NC(=O)CNC(=O)[C@@H](NC(=O)[C@@H](N)CC(C)C)C(C)C)C(C)C)C(C)C)CSSC[C@@H](C(=O)O)NC1=O`: “log2 fold change” -1.3 (RNA-seq, item: Cxcr4; mouse, traumatic brain injury model, frontal cortex and hippocampus; dose not given; reference: TBI alone).
The Papp of `CCOC(=O)C(CCCOC)NC(=O)c1ccc(C2CC2)c(Cc2ccc(F)cc2)n1` (stereo not shown) is reported as 6.6 nm/s (PAMPA).
The median ratio of `O=C(c1ccc(Cl)cc1)N1CCN2C(=O)N(OC(=O)N3CCOc4ccccc43)C(=O)C2C1` (stereo not shown) is reported as 1.24 (Protein phosphatase methylesterase 1 (Homo sapiens, UniProt Q9Y570); enzyme activity, inhibitor, MS-based ABPP; SW-620 conditioned medium; 10 µM, 1 h, 37 °C; reference: compound over DMSO, lower = stronger inhibition).
`CCc1ccc(CC/C=C/c2ccc3c(c2)C(=O)CC3)cc1` has a hematocrit of 44.8% (Sprague-Dawley rat, female, blood; oral, 30 mg/kg/day, 14 days).
`NCCCC[C@@H]1NC(=O)[C@@H](Cc2c[nH]c3ccccc23)NC(=O)[C@H](c2ccccc2)NC(=O)[C@@H]2C[C@@H](OC(=O)NCCN)CN2C(=O)[C@H](Cc2ccccc2)NC(=O)[C@H](Cc2ccc(OCc3ccccc3)cc2)NC1=O`: “placebo-corrected QTcF change” 12.2 ms (healthy volunteers, male; 1950 µg twice daily, 4.0 h, post hoc).
